Published values from different studies.
“And” joins repeats or separate records; there may be more than shown. Numbers after ± are the reported error.
Sequence of UniProt P33261 (whole entry, looked up): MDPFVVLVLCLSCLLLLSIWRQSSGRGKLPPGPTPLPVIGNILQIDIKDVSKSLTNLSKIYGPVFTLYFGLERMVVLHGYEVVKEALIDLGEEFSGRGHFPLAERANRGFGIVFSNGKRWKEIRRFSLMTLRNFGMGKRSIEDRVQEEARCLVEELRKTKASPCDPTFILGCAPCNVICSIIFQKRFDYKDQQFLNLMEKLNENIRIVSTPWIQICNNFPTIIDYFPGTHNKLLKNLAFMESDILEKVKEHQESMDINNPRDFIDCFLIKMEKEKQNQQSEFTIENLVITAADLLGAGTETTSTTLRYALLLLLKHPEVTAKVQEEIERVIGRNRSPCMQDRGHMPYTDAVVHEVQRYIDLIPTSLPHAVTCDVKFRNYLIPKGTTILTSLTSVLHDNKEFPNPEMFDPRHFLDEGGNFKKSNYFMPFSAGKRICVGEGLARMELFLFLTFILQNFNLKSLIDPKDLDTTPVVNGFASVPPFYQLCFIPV

`CC[C@H](C)[C@H](NC(=O)CNC(=O)[C@H](C)NC(=O)[C@H](CC(=O)O)NC(=O)[C@H](CO)NC(=O)[C@H](C)NC(=O)[C@H](CC(C)C)NC(=O)[C@H](CCCCN)NC(=O)[C@H](CCCCN)NC(=O)[C@H](CCSC)NC(=O)[C@H](CC(N)=O)NC(=O)[C@H](Cc1ccccc1)NC(=O)[C@H](CC(=O)O)NC(=O)[C@@H](N)CCSC)C(=O)N[C@@H](Cc1c[nH]c2ccccc12)C(=O)N[C@@H](Cc1ccccc1)C(=O)N[C@H](C(=O)N[C@@H](CCCNC(=N)N)C(=O)N[C@@H](C)C(=O)N[C@H](C(=O)N[C@@H](CCC(N)=O)C(=O)N[C@@H](Cc1ccccc1)C(=O)N[C@H](C(=O)N[C@@H](CCC(=O)O)C(=O)N[C@@H](CCC(=O)O)C(=O)N[C@@H](CCCCN)C(=O)N[C@@H](Cc1ccccc1)C(=O)NCC(=O)N[C@@H](CCC(N)=O)C(=O)N[C@@H](C)C(N)=O)[C@@H](C)O)C(C)C)[C@@H](C)O`: “ΔG of binding” -6.8 kcal/mol (circular dichroism titration; 25% DOPS/75% DOPC liposomes; 50 µM, pH 7.4, 20 °C).
`Cc1noc(C)c1Cn1cc(N2C(=O)CN(Cc3cccc(OS(=O)(=O)O)c3)C2=O)cn1` gave a plasma concentration of 2400 ng/mL (Sprague-Dawley rat, male; oral, 10 mg/kg of parent drug, 1 h).
Under “apparent clearance CL/F”, `O=C(Cc1ccc(OCc2ccccc2)cc1)NC1(C(=O)O)CCN(C(=O)c2ccc(-c3cccc(Cl)c3)cc2)CC1` is recorded as 50.1 ± 1.17 mL/min/kg (mouse BALB/c female; intraperitoneal, 20 mg/kg).
The remaining peptide of `CCCC[C@H](NC(C)=O)C(=O)N[C@@H](CO)C(=O)N[C@H](C(=O)N1CCC[C@H]1C(=O)N[C@]1(C)CCCCCCC=CCCC[C@@](C)(C(=O)N[C@@H](Cc2ccccc2)C(=O)N[C@@H](CCCCN)C(=O)N[C@@H](CCCNC(=N)N)C(=O)N[C@@H](CC(C)C)C(=O)N[C@@H](CCC(N)=O)C(N)=O)NC(=O)[C@H](CCCNC(=N)N)NC(=O)[C@H](CCCC)NC(=O)[C@H](CC(C)C)NC(=O)[C@H](CCCNC(=N)N)NC(=O)[C@H](CCCNC(=N)N)NC(=O)[C@H](CCCNC(=N)N)NC1=O)[C@@H](C)O` is reported as 38.8% (proteinase K; LC-MS; 25 µM, 553.6 min, pH 7.4).
With `COc1cnc2cccc(N3CCc4c(cc(Cn5ccnc5)cc4-c4cn(C)nc4C(F)(F)F)C3=O)c2c1` the AUC(0-t) was 178 µg·h/mL (male CD-1 mouse, plasma; intraperitoneal, 100 mg/kg).
`CC(C)OCCOCc1ccc(OCC(O)CN(N=O)C(C)C)cc1` (stereo not shown) — result for “revertant fold increase”: 0.8 fold (Salmonella typhimurium; Ames test; TA98; 1580 µg/plate, without metabolic activation; relative to: solvent control).
`O=C(O)CCCOc1ccc([18F])cc1-c1cc(-c2ccccc2C(F)(F)F)n(-c2ccccc2)n1` gave a radioactivity of 1 %ID (mouse, urine; dose not given, 360 min post-injection).
For `CN1CCC[C@]1(C)/C=C/S(=O)(=O)NC(=O)Nc1c2c(cc3c1CCC3O)CCC2` (stereo partly shown), “Cmax at first steady-state dose” read 12400 ng/mL (human, plasma; oral, 12.5 mg twice daily of parent drug, day 14, metabolite of dosed drug).
`CN1CCCNC(=O)c2cccc(c2)C(=O)NCCCN(C)CCCNc2cccc3c2C(=O)c2cccc(c2C3=O)NCCC1` has a viability of 15.6% (mouse bone marrow cells; CCK-8; 15 µM, 48 h; relative to: untreated).
With `CNC(=O)C1CCCN(C(=O)C2CC3CCC2N3C(=O)[C@@H]2C[C@@H](O)CN2C(=O)NCc2cccc(Cl)c2F)C1` (mixture of isomers) the remaining activity was 83.3% (CYP2C19 (Homo sapiens, UniProt P33261); enzyme activity, inhibitor, time-dependent inhibition; 0.206 µM, preincubated without NADPH; relative to: negative control).
For `CN(C)S(=O)(=O)c1ccc(S(=O)(=O)N2CCC(n3c(=O)[nH]c4ccccc43)CC2)cc1`, “relative body weight” read 103% and 102% and 104% and 101% (mouse; dose not given, day 7; relative to: day 0).
`CC(C)(O)c1ncc([S@](N)(=O)=NC(=O)Nc2c3c(cc4c2CCC4)CCC3)s1` — result for “subjects with TEAEs”: 67% (item: general, administration-site conditions; healthy human; oral, 30 mg, 14 days, CS formulation, once daily).
With `N=C(N)NCCC[C@@H]1NC(=O)[C@H](CO)NC(=O)[C@@H](NC(=O)[C@H](CO)NC(=O)[C@H](CO)NC(=O)[C@H](Cc2c[nH]c3ccccc23)NC(=O)CNC(=O)[C@H](CO)NC(=O)[C@@H](N)Cc2c[nH]c3ccccc23)CSSC[C@@H](C(=O)NCC(=O)O)NC(=O)[C@H](CO)NC1=O` the Cmax was 6840 ng/mL (patients, plasma; intravenous, 10 mg/kg, thrice weekly, mean).
With `COc1ccnc(C(=O)N[C@H]2COC(=O)[C@H](Cc3ccccc3)[C@@H](OC(=O)C(C)C)[C@H](C)OC2=O)c1O` the KOC was 4520 mL/g (FOCUS PEARL groundwater modelling; soil; geometric mean input).
`O=C([O-])CN1CCN(CC(=O)[O-])CCN(CC(O)CN(CC(O)CN2CCN(CC(=O)[O-])CCN(CC(=O)[O-])CCN(CC(=O)[O-])CC2)C[C@H](O)[C@@H](O)[C@H](O)[C@H](O)CO)CCN(CC(=O)[O-])CC1.[Gd+3]` (stereo partly shown) gave a log K of 4.79 (pH-potentiometry, spectrophotometry, item: Gd(HL)M, M = Cu2+; 25 °C, 0.15 M NaCl).
Under “peak area change”, `C[C@H](C(=O)O)c1ccc(-c2ccccc2)c(F)c1` is recorded as no more than 2% (HPLC; sample solution; concentration not given, 12 h, room temperature, solution stability).
`CNS(=O)(=O)Nc1nccc(Cc2c(C)c3ccc(Oc4ncccc4F)cc3oc2=O)c1F` has an IC50 of 859 nM (TOV112D; cell viability; 7 days).
`Cc1c(Cc2cccc(OC(C)(C)C(=O)O)c2)c2ccc(C(=O)N[C@@H](C)c3cccc(Cl)c3)cc2n1C` has a half-life of 38.4 min (human liver microsomes).
For `COC1CN([C@H]2CC[C@H]([C@@]3(C)Oc4c(Cl)cc(C(=O)NCc5c(SC)cc(C)[nH]c5=O)c(C)c4O3)CC2)C1`, “log2 fold change” read 1.16 (RNA-seq, item: AKT3 mouse homolog; mouse, HT-1376 xenograft, whole blood; dose not given; relative to: vehicle).
`CN(O)C(=O)CCC(=O)NCCCN(CCCCN(CCCNC(=O)CCC(=O)N(C)O)C(=O)CCC(=O)N(C)O)C(=O)CCC(=O)N(C)O.[89Zr]` has a tracer uptake of 0.01 %ID/g (mouse, heart; 24 h).
For `C#CCOCCOCCOCCOCCn1cc(C(ONC(=O)/C=C/C(C)=C/C2(C)Oc3cc(N(C)C)ccc3C2=O)(c2ccc(C)cc2)c2ccc(C)cc2)nn1` (stereo not shown), “release from prodrug hydrolysis” read 25.2% (HPLC; aqueous buffer, 20% acetonitrile; concentration not given, 376 min, pH 3; relative to: initial prodrug amount).
For `Nc1ncc(-c2cc(-c3cnn(CC(F)(F)F)c3)ncc2F)nc1C(=O)NC1CNCC(F)C1` (stereo not shown), the remaining binding was 64% (SNRK; KINOMEscan; 1 µM; relative to: DMSO control).
